Measurements pooled from the literature.
Parts stem from different laboratories: compare values within a part only.
Chain of UniProt O95819 (whole entry, looked up): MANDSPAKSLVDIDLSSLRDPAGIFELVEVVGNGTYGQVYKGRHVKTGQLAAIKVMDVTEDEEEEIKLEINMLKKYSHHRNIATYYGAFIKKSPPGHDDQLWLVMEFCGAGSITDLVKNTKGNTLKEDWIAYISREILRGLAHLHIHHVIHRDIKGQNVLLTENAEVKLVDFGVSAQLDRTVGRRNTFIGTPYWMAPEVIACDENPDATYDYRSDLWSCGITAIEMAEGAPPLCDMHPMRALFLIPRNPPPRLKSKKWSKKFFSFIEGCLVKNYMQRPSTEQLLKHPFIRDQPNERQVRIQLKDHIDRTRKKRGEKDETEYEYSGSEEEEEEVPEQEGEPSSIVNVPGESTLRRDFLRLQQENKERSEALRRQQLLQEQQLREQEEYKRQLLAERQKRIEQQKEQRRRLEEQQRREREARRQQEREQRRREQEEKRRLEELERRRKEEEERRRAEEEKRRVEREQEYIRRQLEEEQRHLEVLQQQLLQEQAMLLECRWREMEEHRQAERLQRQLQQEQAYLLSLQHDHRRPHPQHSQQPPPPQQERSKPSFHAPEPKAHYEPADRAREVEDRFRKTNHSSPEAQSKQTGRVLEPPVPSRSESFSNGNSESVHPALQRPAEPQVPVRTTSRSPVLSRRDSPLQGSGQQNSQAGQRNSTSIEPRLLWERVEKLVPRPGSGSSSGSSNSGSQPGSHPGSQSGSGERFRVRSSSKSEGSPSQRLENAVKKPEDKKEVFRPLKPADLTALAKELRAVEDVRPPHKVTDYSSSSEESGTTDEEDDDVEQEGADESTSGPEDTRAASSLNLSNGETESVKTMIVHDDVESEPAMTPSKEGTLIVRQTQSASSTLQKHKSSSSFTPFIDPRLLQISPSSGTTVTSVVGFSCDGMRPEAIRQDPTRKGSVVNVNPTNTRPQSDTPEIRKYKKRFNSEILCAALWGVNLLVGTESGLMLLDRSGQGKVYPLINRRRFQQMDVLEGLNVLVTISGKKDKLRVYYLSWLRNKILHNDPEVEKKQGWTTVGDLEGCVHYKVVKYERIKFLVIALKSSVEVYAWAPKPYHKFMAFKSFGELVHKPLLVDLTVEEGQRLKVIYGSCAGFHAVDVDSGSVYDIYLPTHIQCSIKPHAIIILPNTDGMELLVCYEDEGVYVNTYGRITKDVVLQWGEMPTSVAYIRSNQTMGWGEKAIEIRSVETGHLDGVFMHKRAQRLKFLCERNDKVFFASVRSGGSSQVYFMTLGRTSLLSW
Chain of UniProt Q9Y3S1 (whole entry, looked up): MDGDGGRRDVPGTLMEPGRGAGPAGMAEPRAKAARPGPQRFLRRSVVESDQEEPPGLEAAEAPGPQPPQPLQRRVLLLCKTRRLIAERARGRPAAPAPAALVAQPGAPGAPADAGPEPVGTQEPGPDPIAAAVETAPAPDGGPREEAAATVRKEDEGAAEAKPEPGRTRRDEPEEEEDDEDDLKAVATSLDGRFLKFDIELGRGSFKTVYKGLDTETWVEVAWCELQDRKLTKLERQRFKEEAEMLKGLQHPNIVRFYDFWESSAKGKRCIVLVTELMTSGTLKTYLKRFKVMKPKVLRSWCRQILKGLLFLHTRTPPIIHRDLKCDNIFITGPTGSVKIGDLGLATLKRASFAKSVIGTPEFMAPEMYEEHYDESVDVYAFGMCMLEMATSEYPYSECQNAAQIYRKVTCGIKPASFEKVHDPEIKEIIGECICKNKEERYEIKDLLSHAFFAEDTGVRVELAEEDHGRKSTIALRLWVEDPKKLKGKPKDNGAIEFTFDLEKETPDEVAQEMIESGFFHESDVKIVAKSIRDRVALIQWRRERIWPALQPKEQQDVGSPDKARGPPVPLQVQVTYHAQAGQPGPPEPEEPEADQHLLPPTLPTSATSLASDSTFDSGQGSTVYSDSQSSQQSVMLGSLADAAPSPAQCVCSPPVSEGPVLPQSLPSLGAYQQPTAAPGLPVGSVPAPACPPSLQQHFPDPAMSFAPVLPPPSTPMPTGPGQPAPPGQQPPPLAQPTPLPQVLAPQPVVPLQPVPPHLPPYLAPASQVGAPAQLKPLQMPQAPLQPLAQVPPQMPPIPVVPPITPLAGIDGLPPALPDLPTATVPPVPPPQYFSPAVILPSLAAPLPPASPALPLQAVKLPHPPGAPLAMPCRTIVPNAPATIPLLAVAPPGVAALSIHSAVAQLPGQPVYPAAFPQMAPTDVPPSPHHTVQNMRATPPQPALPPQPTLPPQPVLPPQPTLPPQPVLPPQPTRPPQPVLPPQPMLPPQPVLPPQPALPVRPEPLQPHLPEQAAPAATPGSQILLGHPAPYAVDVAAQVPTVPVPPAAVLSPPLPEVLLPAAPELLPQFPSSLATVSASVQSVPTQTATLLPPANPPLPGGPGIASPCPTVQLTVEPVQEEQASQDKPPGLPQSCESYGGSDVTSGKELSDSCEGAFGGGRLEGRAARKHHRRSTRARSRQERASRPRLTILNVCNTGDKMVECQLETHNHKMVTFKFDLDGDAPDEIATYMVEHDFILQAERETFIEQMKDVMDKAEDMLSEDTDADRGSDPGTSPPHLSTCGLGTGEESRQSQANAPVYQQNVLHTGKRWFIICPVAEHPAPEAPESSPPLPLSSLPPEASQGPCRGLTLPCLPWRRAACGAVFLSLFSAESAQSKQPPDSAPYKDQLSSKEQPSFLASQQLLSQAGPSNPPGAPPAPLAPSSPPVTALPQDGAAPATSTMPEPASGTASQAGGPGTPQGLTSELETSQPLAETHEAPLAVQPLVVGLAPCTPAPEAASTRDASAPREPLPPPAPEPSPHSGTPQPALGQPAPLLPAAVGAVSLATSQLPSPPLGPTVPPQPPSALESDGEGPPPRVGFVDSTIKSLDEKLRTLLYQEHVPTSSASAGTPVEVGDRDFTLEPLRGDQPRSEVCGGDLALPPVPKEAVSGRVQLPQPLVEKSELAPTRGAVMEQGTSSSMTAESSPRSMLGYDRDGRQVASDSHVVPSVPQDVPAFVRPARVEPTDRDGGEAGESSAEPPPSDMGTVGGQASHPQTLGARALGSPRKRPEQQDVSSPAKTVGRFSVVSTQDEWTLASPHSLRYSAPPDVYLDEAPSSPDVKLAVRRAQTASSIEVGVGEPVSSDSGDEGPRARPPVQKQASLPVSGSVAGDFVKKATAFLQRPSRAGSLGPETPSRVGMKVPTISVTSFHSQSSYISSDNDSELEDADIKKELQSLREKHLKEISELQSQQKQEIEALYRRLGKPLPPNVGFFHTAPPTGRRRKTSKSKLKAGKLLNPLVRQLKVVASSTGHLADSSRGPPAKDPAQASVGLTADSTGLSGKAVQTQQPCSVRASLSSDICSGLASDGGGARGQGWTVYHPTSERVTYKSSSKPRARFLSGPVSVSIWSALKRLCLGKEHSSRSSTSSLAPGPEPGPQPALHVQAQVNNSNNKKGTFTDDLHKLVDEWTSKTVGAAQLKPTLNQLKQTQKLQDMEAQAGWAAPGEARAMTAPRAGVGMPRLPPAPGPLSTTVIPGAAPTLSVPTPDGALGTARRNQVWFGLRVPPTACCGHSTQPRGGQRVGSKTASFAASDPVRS
Chain of UniProt P49336 (whole entry, looked up): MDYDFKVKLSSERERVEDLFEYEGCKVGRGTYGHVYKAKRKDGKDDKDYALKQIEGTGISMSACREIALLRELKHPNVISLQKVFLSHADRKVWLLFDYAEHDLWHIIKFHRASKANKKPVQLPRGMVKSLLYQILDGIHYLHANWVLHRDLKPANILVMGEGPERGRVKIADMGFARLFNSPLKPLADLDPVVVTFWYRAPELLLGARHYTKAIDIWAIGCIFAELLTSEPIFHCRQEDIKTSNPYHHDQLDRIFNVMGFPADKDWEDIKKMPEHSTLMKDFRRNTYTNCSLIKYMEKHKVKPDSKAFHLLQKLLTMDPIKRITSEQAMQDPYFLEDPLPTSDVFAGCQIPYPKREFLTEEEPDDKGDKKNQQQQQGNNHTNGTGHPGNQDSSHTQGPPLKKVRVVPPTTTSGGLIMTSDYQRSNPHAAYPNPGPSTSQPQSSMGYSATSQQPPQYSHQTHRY
Chain of UniProt P49761 (whole entry, looked up): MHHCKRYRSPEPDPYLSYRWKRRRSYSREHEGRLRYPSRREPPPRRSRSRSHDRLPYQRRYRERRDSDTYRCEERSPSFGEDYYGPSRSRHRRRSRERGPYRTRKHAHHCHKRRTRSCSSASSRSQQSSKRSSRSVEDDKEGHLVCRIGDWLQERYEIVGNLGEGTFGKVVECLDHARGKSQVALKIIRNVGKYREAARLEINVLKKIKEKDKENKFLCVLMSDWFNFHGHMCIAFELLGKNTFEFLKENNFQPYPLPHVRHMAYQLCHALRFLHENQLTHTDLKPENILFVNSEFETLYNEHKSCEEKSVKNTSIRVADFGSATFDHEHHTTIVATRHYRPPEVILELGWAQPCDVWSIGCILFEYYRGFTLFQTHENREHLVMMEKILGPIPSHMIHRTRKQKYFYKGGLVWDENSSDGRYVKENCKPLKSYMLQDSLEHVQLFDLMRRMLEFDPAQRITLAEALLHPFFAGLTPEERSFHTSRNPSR
Chain of UniProt O75914 (whole entry, looked up): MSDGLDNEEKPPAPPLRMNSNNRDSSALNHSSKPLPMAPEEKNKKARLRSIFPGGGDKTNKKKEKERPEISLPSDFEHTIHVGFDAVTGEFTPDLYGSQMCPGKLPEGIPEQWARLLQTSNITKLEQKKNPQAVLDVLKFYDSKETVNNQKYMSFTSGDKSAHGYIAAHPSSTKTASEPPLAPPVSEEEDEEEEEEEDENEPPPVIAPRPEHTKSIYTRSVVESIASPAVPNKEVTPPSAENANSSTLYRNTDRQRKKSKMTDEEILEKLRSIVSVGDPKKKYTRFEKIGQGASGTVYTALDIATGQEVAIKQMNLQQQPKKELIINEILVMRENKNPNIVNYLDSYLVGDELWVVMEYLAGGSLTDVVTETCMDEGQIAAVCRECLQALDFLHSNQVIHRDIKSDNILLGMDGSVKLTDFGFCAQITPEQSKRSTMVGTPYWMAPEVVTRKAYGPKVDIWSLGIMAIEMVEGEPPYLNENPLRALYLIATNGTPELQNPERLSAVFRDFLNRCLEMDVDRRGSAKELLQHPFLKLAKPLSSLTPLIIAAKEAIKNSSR

Sample 1 — observed: cell-free assay; technique: competition with immobilised ligand; tested at: 1 µM; quantity: remaining binding
SMILES: Cc1noc([C@H]2C[C@@H](c3ccc(C(F)(F)F)cc3)CN(C(=O)N3CCS(=O)(=O)C3)C2)n1
GRK3 (Homo sapiens, UniProt P35626): 100%
CLK3 (Homo sapiens, UniProt P49761): 100%
PRKCH (Homo sapiens, UniProt P24723): 95%
CDK8 (Homo sapiens, UniProt P49336): 100%
FYN (Homo sapiens, UniProt P06241): 94%
HUNK (Homo sapiens, UniProt P57058): 100%
Tyrosine-protein kinase JAK1, JH1 (JAK1, Homo sapiens, UniProt P23458): 98%
PAK3 (Homo sapiens, UniProt O75914): 100%
MAP4K4 (Homo sapiens, UniProt O95819): 100%
NEK1 (Homo sapiens, UniProt Q96PY6): 100%
MAP3K10 (Homo sapiens, UniProt Q02779): 96%
CSK (Homo sapiens, UniProt P41240): 100%
PRKD1 (Homo sapiens, UniProt Q15139): 100%
WNK2 (Homo sapiens, UniProt Q9Y3S1): 100%

Sample 2 — technique: Phase 2a trial; species: human, idiopathic pulmonary fibrosis; quantity: patients with adverse event
Structure (SMILES): CC(C)n1cnc(-c2ccc(F)cc2)c1-c1ncc(C(=O)Nc2ccc(N3CCN(C)CC3)cc2)[nH]1
refers to: haemorrhoids; all compound arms, grade 5: 0%
refers to: blood fibrinogen increased; 30 mg once daily, grade 4: 0%
refers to: blood urea increased; all compound arms total, grade 3: 0%
refers to: haemorrhoids; 30 mg once daily, grade 5: 0%
refers to: hypocalcaemia; 30 mg once daily, grade 1: 0%

Sample 3 — species: human; sample: microsomes or S9; tested at: 2 µM; time: 0.5 h; quantity: remaining compound
CCN(CCCN1C(=O)CCC1(C)C(=O)NCCC(C)C)c1cccc(C)c1 (stereo not drawn): 4.82%
O=c1[nH]nc2c3scc(-c4ccc(F)cc4)c3ncn12: 95.7%
CC(C)CN1C(=O)C2C3CC4C5(C)CCCC(C)(C(=O)O)C5CCC4(C=C3C(C)C)C2C1=O (stereo not drawn): 74.9%
CCn1c2nc(C)cc(C)c2c(=O)n2c(C(=O)O)nnc12: 64.9%
CC(C)Cc1csc2nc(O)n3nc(-c4ccco4)nc3c12: 65.3%

Sample 4 — observed: enzyme activity; action: inhibitor; tested at: 0.5 µM; relative to: control; quantity: remaining activity
SMILES: CCCC(=O)Oc1ccc2[nH]c(C(=O)c3cc4ccccc4[nH]3)cc2c1
RPS6KA6 (Homo sapiens, UniProt Q9UK32): 95.4%
MAP4K4 (Homo sapiens, UniProt O95819): 97.3%
WNK3 (Homo sapiens, UniProt Q9BYP7): 101%
CAMK2B (Homo sapiens, UniProt Q13554): 90%
Cyclin-dependent kinase 6, with cyclin D3 (CDK6, Homo sapiens, UniProt Q00534): 92.5%
PHKG1 (Homo sapiens, UniProt Q16816): 93.7%

A few entries again (sample 3):
O=c1[nH]nc2c3scc(-c4ccc(F)cc4)c3ncn12: 95.7%
CC(C)CN1C(=O)C2C3CC4C5(C)CCCC(C)(C(=O)O)C5CCC4(C=C3C(C)C)C2C1=O (stereo not drawn): 74.9%
CCn1c2nc(C)cc(C)c2c(=O)n2c(C(=O)O)nnc12: 64.9%
